Experimental data collected from several papers.
Protocols differ between the studies behind these lines. Numbers after ± are the reported error.

`N[C@@H](CC(=O)O)C(=O)OC(C(=O)O)c1ccccc1[N+](=O)[O-].O=C(O)C(F)(F)F` (mixture of isomers) gave a half-life of 13.9 ± 0.2 h (hydrolysis, 1H NMR; aqueous sodium phosphate, 12.5% DMSO-d6; pH 7, dark, less stable diastereomer).
With `NC(=O)c1cnc2[nH]ccc2c1N[C@@H]1[C@@H]2CC3C[C@H]1C[C@@](O)(C3)C2` the half-life was 13.7 h (Japanese, mild hepatic impairment, plasma; oral, 150 mg single dose, mean).
For `N[C@@H](Cc1ccccc1)C(=O)OC[C@H]1O[C@@H](n2cc(F)c(=O)[nH]c2=O)C[C@@H]1O`, the half-life was 0.365 ± 0.0467 h (human pancreas homogenate; pH 7.4, 37 °C, protein 500 µg/mL).
With `COc1ccc2[nH]c([S+]([O-])Cc3ncc(C)c(OC)c3C)nc2c1` (centres unmarked) the half-life was 1.12 ± 0.6 h (healthy Chinese, CYP2C19 intermediate metabolizers, plasma; oral, 20 mg single dose).
With `NC(=O)c1cnc2[nH]ccc2c1N[C@@H]1[C@@H]2CC3C[C@H]1C[C@@](O)(C3)C2` the half-life was 3.7 h (healthy Japanese men, plasma; oral, 20 mg, single dose fasted).
`COc1ccc2c3c1O[C@H]1C[C@@H](OC(=O)c4ccccc4)C=C[C@@]31CCN(C)C2` has a half-life of 2.34 h (healthy elderly men, plasma; intranasal, 33 mg, single dose).
`CC(=O)OCCC(O)(CF)CC(=O)NCc1ccccc1` (centres unmarked) gave a half-life of 0.5 h (human plasma; 4 mM, 37 °C).
`N[C@@H](Cc1c[nH]cn1)C(=O)NCCc1c[nH]c2ccccc12` has a half-life of greater than 16.7 h (mouse plasma; 500 ng/mL, up to 4 h, 37 °C).
For `COc1ccc(F)c(CCCC2CCC(CCNCCCCCN3N=C(c4ccc(OC)c(OC)c4)[C@H]4CC=CC[C@H]4C3=O)O2)c1` (some centres unmarked), the half-life was greater than 1 h (mouse liver microsomes; 40 µM, 37 °C, together with: NADPH).
With `CC[C@H](C)[C@H](NC(=O)[C@H](C)NC(=O)[C@H](CCC(=O)O)NC(=O)[C@H](CCSC)NC(=O)[C@@H](NC(=O)[C@@H](N)C(C)C)[C@@H](C)O)C(=O)N[C@@H](CC(N)=O)C(=O)N[C@@H](CC(C)C)C(=O)N[C@@H](C)C(=O)N[C@@H](Cc1ccccc1)C(=O)N1CCC[C@H]1C(=O)NCC(=O)O` the half-life was roughly 30 h (residual EphA4 binding inhibition; PC-3 conditioned medium; 500 µM, 37 °C).
The half-life of `Cn1cnc2c(F)c(Nc3ccc(Br)cc3Cl)c(C(=O)NOCCO)cc21` is reported as 5.81 h (ESRD on hemodialysis, plasma; oral, 50 mg single dose, dosed 1 h before dialysis).
With `CC(C(=O)O)c1ccc(-c2ccccc2)c(F)c1` (centres unmarked) the half-life was 3.9 ± 1.1 h (healthy volunteers, plasma; oral, 100 mg, arithmetic mean, together with: control beverage 250 mL).
With `CCCCCCCCC(=O)N[C@H]1CNC1=O` the half-life was greater than 24 h (phosphate buffer, 10% MeCN; 1 µM, pH 5.0, 37 °C).
With `N[C@@H](Cc1ccccc1)C(=O)N[C@@H](Cc1ccc(O)cc1)C(=O)OC[C@H]1O[C@@H](n2cc(F)c(=O)[nH]c2=O)C[C@@H]1O` the half-life was 1.88 ± 0.883 h (human small intestine homogenate; pH 7.4, 37 °C, protein 1000 µg/mL).
With `Cn1cnnc1SCC(=O)C12CC3CC(CC(C3)C1)C2` the half-life was 1.13 h (metabolic stability; human liver microsomes; 37 °C, together with: NADPH).
With `CCOc1ccc(Cc2cc([C@@H]3S[C@H](CO)[C@@H](O)[C@H](O)[C@H]3O)c(OC)cc2C)cc1` the half-life was 11.2 ± 2.68 h (Japanese type 2 diabetes patients, plasma; oral, 5 mg single dose, eGFR 45-59 mL/min/1.73 m^2).
With `COc1cc2c3c(n(CCCN4CCOCC4)c(=O)c2cc1OC)-c1cc2c(cc1C3=O)OCO2` the half-life was 69 h (patients, weekly schedule, plasma; intravenous, all dose levels).
With `C/C=C1\NC(=O)[C@H]2CSSCC/C=C/[C@H](CC(=O)N[C@H](C(C)C)C(=O)N2)OC(=O)[C@H](C(C)C)NC1=O` the half-life was 8.3 h (advanced cancer patients, plasma; intravenous, 14 mg/m^2, geometric mean, together with: rifampin 600 mg).
`C[C@@H](Oc1ccc(S(C)(=O)=O)cc1C(=O)N1C[C@@H]2C[C@]2(c2cc(C(F)(F)F)on2)C1)C(F)(F)F` has a half-life of 222 h (healthy male volunteers, plasma; oral, 25 mg, geometric mean, together with: itraconazole).
`O=C1CC(=O)N(CCc2ccccc2)C(=O)N1CCc1ccccc1` has a half-life of 1.07 h (human liver microsomes).
The half-life of `C[C@]12C=CC(=O)C=C1CC[C@@H]1[C@@H]2[C@@H](O)C[C@@]2(C)[C@H]1C[C@H]1O[C@@H](C3CCCCC3)O[C@]12C(=O)CO` is reported as 1.78 ± 0.11 h (children with asthma, serum; inhaled, 80 µg ciclesonide, day 7, HFA-MDI with spacer, mixed distribution-elimination phase).
`CC(C)[C@@H](N)C(=O)OC[C@H]1O[C@@H](n2cc(F)c(=O)[nH]c2=O)C[C@@H]1O` gave a half-life of 5.81 ± 1.07 h (human pancreas homogenate; pH 7.4, 37 °C, protein 500 µg/mL).
With `CCC(CC)COC(=O)[C@H](C)N[P@](=O)(OC[C@H]1O[C@@](C#N)(c2ccc3c(N)ncnn23)[C@H](O)[C@@H]1O)Oc1ccccc1` the half-life was roughly 0.0167 h (human liver microsomes; 1 µM, pH 7.4, together with: NADPH).
`O=C(NO)c1cncc(OS(=O)(=O)Oc2ccc3ccccc3c2)c1` gave a half-life of greater than 20 h (buffer with or without glutathione; 50 µM, pH 7.4, 37 °C, together with: glutathione 2 mM).
With `CC[C@H](C)[C@H](N)C(=O)OC[C@H]1O[C@@H](n2cc(F)c(=O)[nH]c2=O)C[C@@H]1O` the half-life was 0.168 ± 0.00667 h (human small intestine homogenate; pH 7.4, 37 °C, protein 1000 µg/mL).
`O=C(CCc1ccccc1)N[C@H]1CNC1=O` gave a half-life of greater than 24 h (PBS, 10% MeCN; 1 µM, pH 7.4, 37 °C).
`CS(=O)(=O)n1cc2c(n1)CN([C@H]1CO[C@H](c3cc(F)ccc3F)[C@@H](N)C1)C2` has a half-life of 145 h (healthy Japanese men, plasma; oral, 1 mg once weekly, day 15).
For `COc1cc(OC)c(/C=C/S(=O)(=O)Cc2ccc(OC)c(NCC(=O)O)c2)c(OC)c1`, the half-life was 5.29 ± 1.09 h (cancer patients, phase I, plasma; oral, 280 mg twice daily, day 21 cycle 1).
`Nc1cc(F)ccc1NC(=O)c1ccc(CNC(=O)/C=C/c2cccnc2)cc1` gave a half-life of 18.7 h (Japanese patients, plasma; oral, 40 mg twice weekly, cycle 1 day 25, arithmetic mean).
The half-life of `CN1C(=O)[C@@H](NC(=O)c2nnc(Cc3ccccc3)[nH]2)COc2ccccc21` is reported as 3.79 h (healthy men, plasma; oral, 20 mg once daily, day 14, geometric mean).
`CN(C(=O)[C@H](Cc1ccccc1)NC(=O)CNC(=O)c1ccccc1)c1ccc(Cl)cc1` gave a half-life of greater than 2 h (human liver microsomes; 1 µM, pH 7.4, together with: cobicistat 0.5 µM).
With `CCC(CC)O[C@@H]1C=C(C(=O)O)C[C@H](N)[C@H]1NC(C)=O` the half-life was 7.62 ± 1.07 h (healthy Indian subjects, fed, plasma; oral, 75 mg oseltamivir phosphate, test capsule formulation).
`O=C1Nc2ccccc2C(=O)CCc2ccccc21` gave a half-life of 5.9 h (mouse blood; 1 µM, 6 h incubation, 37 °C).
For `O=C(O)C[C@H](O)C[C@H](O)/C=C/c1c(C2CC2)nc2ccccc2c1-c1ccc(F)cc1`, the half-life was 13.8 h (healthy Chinese male volunteers, plasma; oral, 2 mg once daily, multiple dose).
`Cc1ccc(NC(=O)c2ccc(CN3CCN(C)CC3)cc2)cc1Nc1nccc(-c2cncc(-c3oncc3C)c2)n1` has a half-life of 11.3 h (Parkinson's disease patients, plasma; oral, 100 mg once daily, day 1, 7-day dosing, mean).
The half-life of `CC[C@H]1OC(=O)[C@H](C)[C@@H](O[C@H]2C[C@@](C)(OC)[C@@H](O)[C@H](C)O2)[C@H](C)[C@@H](O[C@@H]2O[C@H](C)C[C@H](N(C)C)[C@H]2O)[C@](C)(O)C[C@@H](C)CN(C)[C@H](C)[C@@H](O)[C@]1(C)O` is reported as 1860 h (whole body; oral, high dose, depuration phase).
`CCN1CCN(Cc2ccc(Nc3ncc(F)c(-c4cc(F)c5nc(C)n(C(C)C)c5c4)n3)nc2)CC1` gave a half-life of 24.8 h (population PK model; patients, plasma; oral, 200 mg single dose).
The half-life of `CCN(C(=O)[C@H](Cc1ccccc1)NC(=O)CNC(=O)c1ccccc1)c1ccccc1` is reported as greater than 2 h (human liver microsomes; 1 µM, pH 7.4, together with: cobicistat 0.5 µM).
With `CNCCC(Oc1ccc(C(F)(F)F)cc1)c1ccccc1` (centres unmarked) the half-life was 240 h (whole body; oral, high dose, depuration phase).
For `CCOc1cc([C@@H](CS(C)(=O)=O)N2C(=O)c3cccc(NC(C)=O)c3C2=O)ccc1O[C@@H]1O[C@H](C(=O)O)[C@@H](O)[C@H](O)[C@H]1O`, the half-life was 14.5 h (mild renal impairment patients, plasma; oral, 30 mg of apremilast).
The half-life of `CC(C)(c1ccc(O)cc1)c1ccc(O)cc1` is reported as 3.9 h (GC-MS; exposure tank water with snails, reconstituted water; 500 ng/L nominal, 20 °C).
The half-life of `N[C@@H](Cc1ccccc1)C(=O)NCC(=O)OC[C@H]1O[C@@H](n2cc(F)c(=O)[nH]c2=O)C[C@@H]1O` is reported as 0.118 ± 0.005 h (human small intestine homogenate; pH 7.4, 37 °C, protein 1000 µg/mL).
`Nc1nc(NC2CC2)c2ncn([C@H]3C=C[C@@H](CO)C3)c2n1` has a half-life of 1.4 h (HIV-infected children and adolescents, Tanner stage 3-5, plasma; oral, 8 mg/kg).
The half-life of `C[C@@H]1CCO[C@H]2Cn3cc(C(=O)NCc4ccc(F)cc4F)c(=O)c(O)c3C(=O)N12` is reported as 12.7 h (mean; HIV-1 infected treatment-experienced adolescents, plasma; oral, about 1 mg/kg once daily, steady state).

Excerpt of the above:
`O=C(NO)c1cncc(OS(=O)(=O)Oc2ccc3ccccc3c2)c1` gave a half-life of greater than 20 h (buffer with or without glutathione; 50 µM, pH 7.4, 37 °C, together with: glutathione 2 mM).
With `CC[C@H](C)[C@H](N)C(=O)OC[C@H]1O[C@@H](n2cc(F)c(=O)[nH]c2=O)C[C@@H]1O` the half-life was 0.168 ± 0.00667 h (human small intestine homogenate; pH 7.4, 37 °C, protein 1000 µg/mL).
`O=C(CCc1ccccc1)N[C@H]1CNC1=O` gave a half-life of greater than 24 h (PBS, 10% MeCN; 1 µM, pH 7.4, 37 °C).
`CS(=O)(=O)n1cc2c(n1)CN([C@H]1CO[C@H](c3cc(F)ccc3F)[C@@H](N)C1)C2` has a half-life of 145 h (healthy Japanese men, plasma; oral, 1 mg once weekly, day 15).
For `COc1cc(OC)c(/C=C/S(=O)(=O)Cc2ccc(OC)c(NCC(=O)O)c2)c(OC)c1`, the half-life was 5.29 ± 1.09 h (cancer patients, phase I, plasma; oral, 280 mg twice daily, day 21 cycle 1).
